{"data": "Published values of several laboratories", "Genome polyprotein NS2B-NS3 protease": "Genome polyprotein, NS2B-NS3 protease (dengue virus type 2, UniProt P29990)", "note": "Each line is one published result; not all experiments were run side by side. ± gives the spread as reported."}
{"Compound": "CN1CCC[C@]1(C)/C=C/S(=O)(=O)NC(=O)Nc1c2c(cc3c1CC(O)C3)CCC2 (stereo partly drawn)", "test system": "human, plasma", "setting": "oral, 50 mg twice daily of parent drug, day 1, metabolite of dosed drug", "endpoint": "AUC(0-tau)", "value": "32000 ng·h/mL"}
{"Compound": "C[C@@H]1O[C@@H](O[C@@H]2[C@@H](O)[C@H](O)[C@@H](CO)O[C@H]2c2c(O)cc(O)c3c(=O)cc(-c4ccc(O)cc4)oc23)[C@H](O)[C@H](O)[C@H]1O", "test system": "Sprague-Dawley rat, bile", "setting": "intravenous, 20 mg/kg, 8 h", "how to read": "baseline: dose", "endpoint": "cumulative biliary excretion", "value": "28.2 ± 1.52%"}
{"Compound": "COc1ccc(Nc2nc(Nc3ccc(OCCOCC[18F])cc3)ncc2Br)cc1", "test system": "ICR mice, S180 tumour", "setting": "intravenous, 370 kBq, 60 min", "how to read": "baseline: tumour over blood", "endpoint": "uptake ratio", "value": 1.26}
{"Compound": "CN(O)C(=O)CCC(=O)NCCCN(CCCCN(CCCNC(=O)CCC(=O)N(C)O)C(=O)CCC(=O)N(C)O)C(=O)CCC(=O)N(C)O.[89Zr]", "test system": "mouse, pancreas", "setting": "24 h", "endpoint": "tracer uptake", "value": "0.01 %ID/g"}
{"Compound": "CC(C)(O)c1ncc([S@](N)(=O)=NC(=O)Nc2c3c(cc4c2CCC4)CCC3)s1", "test system": "healthy human", "setting": "oral, 300 mg single dose, capsule formulation", "endpoint": "nervous system adverse events", "value": "17%"}
{"Compound": "CC(C)[C@H](NC(=O)[C@H](Cc1c[nH]c2ccccc12)NC(=O)[C@H](CCCNC(=N)N)NC(=O)[C@H](CCCNC(=N)N)NC(=O)[C@@H](NC(=O)[C@@H](NC(=O)[C@H](CCCNC(=N)N)NC(=O)[C@@H](NC(=O)[C@@H](NC(=O)[C@H](CCCNC(=N)N)NC(=O)[C@H](CCCNC(=N)N)NC(=O)[C@@H](NC(=O)[C@H](Cc1c[nH]c2ccccc12)NC(=O)[C@H](CCCNC(=N)N)NC(=O)[C@H](CCCNC(=N)N)NC(=O)[C@@H](NC(=O)[C@H](CCCNC(=N)N)NC(=O)[C@H](CCCNC(=N)N)NC(=O)[C@@H](NC(=O)[C@H](Cc1c[nH]c2ccccc12)NC(=O)[C@H](CCCNC(=N)N)NC(=O)[C@@H](N)CCCNC(=N)N)C(C)C)C(C)C)C(C)C)C(C)C)C(C)C)C(C)C)C(C)C)C(=O)N[C@@H](CCCNC(=N)N)C(=O)N[C@@H](CCCNC(=N)N)C(=O)O", "test system": "CD-1 mice", "setting": "intravenous, 15 mg/kg, 6-24 h", "endpoint": "urinary sodium excretion", "value": "< 16 µmol/day/g body weight"}
{"Compound": "C=CC(=O)Nc1cc(Nc2nccc(-c3cn(C)c4ccccc34)n2)c(OC)cc1N(C)CCNC", "assay": "storage stability", "test system": "human plasma", "setting": "5 h, -80 °C, low QC level", "endpoint": "recovery", "value": "94.5%"}
{"Compound": "N=C(N)NCc1cccc(NC(=O)c2cc(-c3ccccc3)n(-c3ccccc3)n2)c1", "target or system": "Genome polyprotein NS2B-NS3 protease", "assay": "reporter gene", "test system": "HeLa", "endpoint": "EC50", "value": "16 µM"}
{"Compound": "C=C(NC(=O)c1csc(-c2nc3c(cc2O)-c2nc(cs2)C(=O)NC(C(C)O)C(=O)NC(=C(C)OC)c2nc(cs2)C(=O)NC2c4nc(cs4)C(=O)NC(COC(=O)c4c5c6c(cccc6n4O)COC(=O)C(OC4CC(C)(O)C(N(C)C)C(C)O4)C2OC5)c2nc-3cs2)n1)C(N)=O (stereo not drawn)", "test system": "cynomolgus monkey, both sexes, plasma", "setting": "intravenous infusion, 1 mg/kg single dose", "endpoint": "MRT(0-last)", "value": "57.6 min"}
{"Compound": "O=C(Nc1cnccc1-c1ccc([18F])nc1)c1ccnc(NC(=O)C2CC2)c1", "assay": "PET imaging", "test system": "FVB/NJ mice, both sexes, brain", "setting": "intravenous, 120 min post-injection", "endpoint": "median SUV", "value": 0.035}
{"Compound": "C[N+](C)(CCOCCOCCOCCNC(=S)Nc1ccc(C[C@H]2CN(CC(=O)[O-])CCN(CC(=O)[O-])CCN2CC(=O)[O-])cc1)C[c-]1cccc1.[64Cu+2].[Fe+2].c1cc[cH-]c1", "test system": "nude mice, BxPC-3 xenograft", "setting": "4 h, pretargeted", "endpoint": "tumour uptake", "value": "1.7 ± 1.2 %ID/g"}
{"Compound": "CN1CCC[C@]1(C)/C=C/S(=O)(=O)NC(=O)Nc1c2c(cc3c1CCC3)CC=C2", "test system": "human, plasma", "setting": "oral, 50 mg twice daily of parent drug, day 1, metabolite of dosed drug", "endpoint": "AUC(0-tau)", "value": "139000 ng·h/mL"}
{"Compound": "COC1CN([C@H]2CC[C@H]([C@@]3(C)Oc4c(Cl)cc(C(=O)NCc5c(SC)cc(C)[nH]c5=O)c(C)c4O3)CC2)C1", "assay": "RNA-seq, refers to: FBXO2", "test system": "human, whole blood", "setting": "dose not given, 24 h", "how to read": "baseline: pretreatment baseline", "endpoint": "log2 fold change", "value": 1.6}
{"Compound": "NC(=O)c1ccccc1NC(=O)c1cc(-c2ccccc2)n(-c2ccccc2)n1", "target or system": "Genome polyprotein NS2B-NS3 protease", "assay": "reporter gene", "test system": "HeLa", "endpoint": "EC50", "value": "28 µM"}
{"Compound": "Cc1c(Cc2cccc(OC(C)(C)C(=O)O)c2)c2ccc(C(=O)N[C@@H](C)c3cccc(C(C)(C)C)c3)cc2n1CC1CC1", "assay": "metabolic stability", "test system": "mouse, liver microsomes", "endpoint": "half-life", "value": "46.7 min"}
{"Compound": "CCCCN1C(=O)c2cccc3c(NCCCCCCN4CCOCC4)ccc(c23)C1=O", "test system": "ethyl acetate", "endpoint": "absorption maximum", "value": "429 nm"}
{"Compound": "COc1cccc(OC)c1-c1cc(C(=O)NC2(C(=O)O)C3CC4CC(C3)CC2C4)nn1-c1ccc(C(=O)N(C)CCCN(C)CCCN(C)C(=O)[C@H](CCCCNC(=O)[C@H](CC(C)C)NC(=O)C2OC2C(=O)O)NC(=O)CN2CCN(CC(=O)[O-])CCN(CC(=O)[O-])CCN(CC(=O)[O-])CC2)cc1C(C)C.[177Lu+3] (mixture of isomers)", "test system": "mouse, HT-29 xenograft", "setting": "4 h post injection, biodistribution", "how to read": "baseline: tumour over liver uptake", "endpoint": "tumour-to-liver ratio", "value": 6.26}
{"Compound": "COCC1CN(C2CCN(c3cc(OC)c(Nc4ncc(Br)c(Nc5ccc6c(c5P(C)(C)=O)OCCO6)n4)cc3C)CC2)C1", "assay": "first-in-human trial", "test system": "human", "setting": "oral, 10 mg once daily", "how to read": "treatment-related leading to dose reduction", "endpoint": "adverse events", "value": "0%"}
{"Compound": "CC1(C)CC[C@]2(NC(=O)C(C)(F)F)CC[C@]3(C)[C@H](C(=O)C=C4[C@@]5(C)C=C(C#N)C(=O)C(C)(C)[C@@H]5CC[C@]43C)[C@@H]2C1", "test system": "human, plasma", "setting": "dose not given, added: gemfibrozil", "how to read": "baseline: without gemfibrozil", "endpoint": "AUC", "value": "no effect"}
{"Compound": "Cc1cc(-c2ccc(C(=O)[C@@H]3CCCC[C@H]3C(=O)Nc3cnn4c3C(=O)NCC4)cc2)[nH]n1", "test system": "human, urine", "setting": "oral, 200 mg, 120-144 h", "how to read": "baseline: dose", "endpoint": "recovery of radioactivity per interval", "value": "0.01%"}
{"Compound": "O=C(Nc1cnccc1-c1ccc([18F])cc1)c1ccnc(NC(=O)C2CC2)c1", "test system": "FVB/NJ mouse, both sexes, brain", "setting": "intravenous, 5 min, added: tariquidar 15 mg/kg iv", "endpoint": "SUV", "value": 0.99}
{"Compound": "CCCCN1C(=O)c2cccc3c(NCCCCCCCCCCN4CCOCC4)ccc(c23)C1=O", "test system": "dioxane", "endpoint": "absorption maximum", "value": "428 nm"}
{"Compound": "CC1(C)OCCc2cc(C(=O)N3CCC(c4nc(-c5ccccc5)n[nH]4)CC3)ccc21", "test system": "CD-1 mouse liver microsomes", "setting": "pH 7.4, added: NADPH", "endpoint": "intrinsic clearance, scaled", "value": "2320 mL/min/kg"}
{"Compound": "Cc1ncsc1-c1ccc(C(C)NC(=O)C2CC(O)CN2C(=O)C(NC(=O)CCCCCCCCCCN2CCCC(Nc3ncc(Cl)c(Nc4ccccc4S(=O)(=O)C(C)C)n3)C2)C(C)(C)C)cc1 (stereo not drawn)", "target or system": "22Rv1", "assay": "RNA-seq, refers to: PALB2 mRNA", "setting": "concentration not given", "how to read": "baseline: DMSO", "endpoint": "log2 fold change", "value": -2.09}
{"Compound": "CN([O-])C(=O)CN1CCNCCN(CC(=O)N(C)[O-])CC1.[89Zr+4]", "test system": "mouse, spleen", "setting": "intravenous, 4 h", "endpoint": "tracer uptake", "value": "0.1 %ID/g"}
{"Compound": "N=C(N)NCCC[C@@H]1NC(=O)[C@H](CO)NC(=O)[C@@H](NC(=O)[C@H](CO)NC(=O)[C@H](CO)NC(=O)[C@H](Cc2c[nH]c3ccccc23)NC(=O)CNC(=O)[C@H](CO)NC(=O)[C@@H](N)Cc2c[nH]c3ccccc23)CSSC[C@@H](C(=O)NCC(=O)O)NC(=O)[C@H](CO)NC1=O", "test system": "human, plasma", "setting": "i.v., 5 mg/kg thrice weekly, 4 weeks, median", "endpoint": "AUCinf", "value": "343 ng·h/mL"}
{"Compound": "CN[C@H](CC(C)C)C(=O)N[C@H]1C(=O)N[C@@H](CC(N)=O)C(=O)N[C@H]2C(=N)N[C@H]3C(=O)N[C@H](C(=O)N[C@H](C(=O)NCCC[N+](C)(C)C)c4cc(O)cc(O)c4-c4cc3ccc4O)[C@H](O)c3ccc(c(Cl)c3)Oc3cc2cc(c3O[C@@H]2O[C@H](CO)[C@@H](O)[C@H](O)[C@H]2O[C@H]2C[C@](C)(NCc3ccc(-c4ccc(Cl)cc4)cc3)[C@H](O)[C@H](C)O2)Oc2ccc(cc2Cl)[C@H]1O", "test system": "mouse", "setting": "intravenous, 50 mg/kg", "endpoint": "clearance", "value": "0.6 mL/min/kg"}
{"Compound": "Cc1[nH]c(=O)c(CNC(=O)c2cc(Cl)c3c(c2C)O[C@@](C)([C@H]2CC[C@H](N(C)C)CC2)O3)c(C)c1O", "test system": "human, plasma", "setting": "oral, 200 mg", "endpoint": "share of plasma radioactivity", "value": "14.9%"}
{"Compound": "CCCCN1C(=O)c2cccc3c(NCCN4CCOCC4)ccc(c23)C1=O", "test system": "dioxane", "endpoint": "absorption maximum", "value": "422 nm"}
{"Compound": "CC(C)(C)[C@H](NC(=O)C(F)F)C(=O)N1C[C@H]2[C@@H]([C@H]1C(=O)N[C@H](C#N)C[C@@H]1CCCNC1=O)C2(C)C", "test system": "human liver microsomes", "setting": "scaled to liver", "endpoint": "intrinsic clearance", "value": "27.4 mL/min/kg"}
{"note": "Repeated from above:"}
{"Compound": "O=C(Nc1cnccc1-c1ccc([18F])nc1)c1ccnc(NC(=O)C2CC2)c1", "assay": "PET imaging", "test system": "FVB/NJ mice, both sexes, brain", "setting": "intravenous, 120 min post-injection", "endpoint": "median SUV", "value": 0.035}
{"Compound": "CC1(C)OCCc2cc(C(=O)N3CCC(c4nc(-c5ccccc5)n[nH]4)CC3)ccc21", "test system": "CD-1 mouse liver microsomes", "setting": "pH 7.4, added: NADPH", "endpoint": "intrinsic clearance, scaled", "value": "2320 mL/min/kg"}
{"Compound": "CN[C@H](CC(C)C)C(=O)N[C@H]1C(=O)N[C@@H](CC(N)=O)C(=O)N[C@H]2C(=N)N[C@H]3C(=O)N[C@H](C(=O)N[C@H](C(=O)NCCC[N+](C)(C)C)c4cc(O)cc(O)c4-c4cc3ccc4O)[C@H](O)c3ccc(c(Cl)c3)Oc3cc2cc(c3O[C@@H]2O[C@H](CO)[C@@H](O)[C@H](O)[C@H]2O[C@H]2C[C@](C)(NCc3ccc(-c4ccc(Cl)cc4)cc3)[C@H](O)[C@H](C)O2)Oc2ccc(cc2Cl)[C@H]1O", "test system": "mouse", "setting": "intravenous, 50 mg/kg", "endpoint": "clearance", "value": "0.6 mL/min/kg"}
